Experimental data gathered from unrelated publications.
Each line is one published result; not all experiments were run side by side. Values joined by “and” are separate records of one study, mostly repeats; a detail may differ. ± marks the error that the study gave.
Cell line: K562

C[C@H](CCC1OC1(C)C)[C@@H]1CC[C@]2(C)C3=C(CC[C@@]12C)[C@@]1(C)CC[C@H](O)C(C)(C)[C@@H]1CC3 (stereo partly drawn) — inhibition (cell growth or viability, SRB; 50 µM): 34.1%
CCCCn1cc(C(=O)O)c(=O)c2cc(F)c(Nc3cc(OC)c(OC)c(OC)c3)c([N+](=O)[O-])c21 — IC50 (cell growth, SRB; 72 h): 22.5 ± 0.57 µg/mL
CC(C)=CCCC(C)C1CCC2(C)C3=C(CCC12C)C1(C)CCC(=O)C(C)(C)C1CC3 (stereo not drawn) — inhibition (cell growth or viability, SRB; 50 µM): 95%
COc1ccc(-c2coc3c(CC=C(C)C)c(O)c(CC=C(C)C)c(O)c3c2=O)cc1O — viability (cell growth or viability, MTT; 12.5 µg/mL): 55%
Cc1[nH][n+]([Pd-2]([Br])([Br])[n+]2[nH]c(C)c(CSCc3ccccc3)c2C)c(C)c1CSCc1ccccc1 — IC50 (cytotoxicity, 7-AAD flow cytometry; 24 h): 0.68 ± 0.04 µM
CCCCn1cc(C(=O)O)c(=O)c2cc(F)c(Nc3ccccc3OC)c([N+](=O)[O-])c21 — IC50 (cell growth or viability, SRB): 35.6 µM and < 50 µM
CC(C)=CCc1cc(-c2coc3cc(O)c(CC=C(C)C)c(O)c3c2=O)ccc1O — viability (cell growth or viability, MTT; 100 µg/mL): 8.19%
CCCCn1cc(C(=O)O)c(=O)c2cc(F)c3c(nnn3-c3ccccc3OC)c21 — IC50 (cell growth or viability, SRB): 277 µM
COc1cc2c(cc1O)[C@]1(O)C(=O)c3c(O)cc4c(c3O[C@@H]1CO2)C=CC(C)(C)O4 — viability (cell growth or viability, MTT; 25 µg/mL): 7.64%
COC1CCC2(C)C3=C(CCC2C1(C)C)C1(C)CCC(C(C)CCC=C(C)C)C1(C)CC3 (stereo not drawn) — inhibition (cell growth or viability, SRB; 50 µM): 57.8%
CC(C)=CCc1c2c(c(O)c3c(=O)c(-c4ccc(O)cc4)coc13)CC(C(C)(C)O)O2 (stereo not drawn) — viability (cell growth or viability, MTT; 50 µg/mL): 11.6%
Cc1[nH][n+]([Pd-2]([Br])([Br])[n+]2[nH]c(C)c(CSC3CCCCC3)c2C)c(C)c1CSC1CCCCC1 — IC50 (cytotoxicity, 7-AAD flow cytometry; 24 h): 0.23 ± 0.04 µM

Repeated from above:
CC(C)=CCc1c2c(c(O)c3c(=O)c(-c4ccc(O)cc4)coc13)CC(C(C)(C)O)O2 (stereo not drawn) — viability (cell growth or viability, MTT; 50 µg/mL): 11.6%
